# Measurements collected from several papers.
# Each numbered part is a random draw from the data of one study; scales do not carry over between parts. “And” joins repeats or separate records; there may be more than shown.
# Sequence of UniProt Q8N5S9 (whole entry, looked up): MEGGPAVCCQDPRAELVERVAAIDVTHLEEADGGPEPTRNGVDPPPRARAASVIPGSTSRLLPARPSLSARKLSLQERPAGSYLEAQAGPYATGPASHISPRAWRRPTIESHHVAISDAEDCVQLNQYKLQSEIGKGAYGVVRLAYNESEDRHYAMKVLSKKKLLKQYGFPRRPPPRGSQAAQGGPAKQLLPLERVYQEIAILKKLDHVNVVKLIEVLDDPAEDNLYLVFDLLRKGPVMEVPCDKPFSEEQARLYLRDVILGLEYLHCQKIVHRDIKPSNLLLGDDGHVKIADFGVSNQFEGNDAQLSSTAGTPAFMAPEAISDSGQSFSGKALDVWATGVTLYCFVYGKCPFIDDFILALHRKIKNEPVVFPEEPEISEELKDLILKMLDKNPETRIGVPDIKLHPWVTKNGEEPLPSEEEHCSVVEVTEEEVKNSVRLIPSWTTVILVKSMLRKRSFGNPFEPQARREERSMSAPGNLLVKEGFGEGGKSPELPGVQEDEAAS
# Sequence of UniProt P49759 (whole entry, looked up): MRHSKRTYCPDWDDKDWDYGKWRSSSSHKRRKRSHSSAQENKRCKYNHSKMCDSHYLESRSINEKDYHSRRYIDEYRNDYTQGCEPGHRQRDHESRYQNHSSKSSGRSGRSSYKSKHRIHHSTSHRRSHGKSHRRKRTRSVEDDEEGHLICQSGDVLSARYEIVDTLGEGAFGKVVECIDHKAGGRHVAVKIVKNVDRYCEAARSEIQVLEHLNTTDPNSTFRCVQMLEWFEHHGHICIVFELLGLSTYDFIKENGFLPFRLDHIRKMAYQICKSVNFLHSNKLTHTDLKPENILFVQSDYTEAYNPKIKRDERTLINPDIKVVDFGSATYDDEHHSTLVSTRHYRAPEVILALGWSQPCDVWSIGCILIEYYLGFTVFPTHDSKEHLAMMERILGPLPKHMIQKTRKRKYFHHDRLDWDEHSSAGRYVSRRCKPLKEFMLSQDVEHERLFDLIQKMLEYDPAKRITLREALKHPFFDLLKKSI
# Sequence of UniProt Q9NQU5 (whole entry, looked up): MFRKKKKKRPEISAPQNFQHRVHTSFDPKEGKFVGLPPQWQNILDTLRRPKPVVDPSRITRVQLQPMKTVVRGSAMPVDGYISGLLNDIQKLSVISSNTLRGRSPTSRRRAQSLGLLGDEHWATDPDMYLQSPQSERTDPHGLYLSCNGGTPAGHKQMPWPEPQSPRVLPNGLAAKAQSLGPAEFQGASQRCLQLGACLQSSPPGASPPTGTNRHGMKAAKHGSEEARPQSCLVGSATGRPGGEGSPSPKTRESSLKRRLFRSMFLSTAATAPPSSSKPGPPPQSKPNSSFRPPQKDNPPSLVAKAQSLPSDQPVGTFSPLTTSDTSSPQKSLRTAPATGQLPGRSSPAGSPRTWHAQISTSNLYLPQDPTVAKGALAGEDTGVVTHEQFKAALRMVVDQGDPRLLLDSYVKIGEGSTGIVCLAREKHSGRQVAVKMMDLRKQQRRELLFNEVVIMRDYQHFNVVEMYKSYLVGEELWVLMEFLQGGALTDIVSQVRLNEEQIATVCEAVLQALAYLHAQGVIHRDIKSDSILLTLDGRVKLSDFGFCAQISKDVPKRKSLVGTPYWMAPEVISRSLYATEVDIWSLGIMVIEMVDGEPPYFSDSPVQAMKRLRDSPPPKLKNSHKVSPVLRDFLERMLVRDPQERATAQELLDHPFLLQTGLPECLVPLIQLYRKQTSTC
# Sequence of UniProt P37023 (whole entry, looked up): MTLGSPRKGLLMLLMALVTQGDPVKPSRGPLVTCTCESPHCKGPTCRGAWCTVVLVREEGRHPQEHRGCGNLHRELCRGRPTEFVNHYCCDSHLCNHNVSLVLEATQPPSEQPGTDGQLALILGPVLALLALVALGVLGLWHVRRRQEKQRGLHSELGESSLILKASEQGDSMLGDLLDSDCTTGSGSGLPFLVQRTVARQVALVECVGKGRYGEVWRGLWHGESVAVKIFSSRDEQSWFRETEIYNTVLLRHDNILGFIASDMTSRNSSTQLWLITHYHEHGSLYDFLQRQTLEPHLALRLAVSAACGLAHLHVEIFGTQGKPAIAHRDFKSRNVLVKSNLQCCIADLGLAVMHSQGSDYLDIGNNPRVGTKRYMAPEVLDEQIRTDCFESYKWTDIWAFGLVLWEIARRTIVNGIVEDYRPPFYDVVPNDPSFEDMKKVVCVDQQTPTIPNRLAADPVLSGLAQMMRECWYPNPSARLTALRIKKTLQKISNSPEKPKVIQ
# Sequence of UniProt Q9P286 (whole entry, looked up): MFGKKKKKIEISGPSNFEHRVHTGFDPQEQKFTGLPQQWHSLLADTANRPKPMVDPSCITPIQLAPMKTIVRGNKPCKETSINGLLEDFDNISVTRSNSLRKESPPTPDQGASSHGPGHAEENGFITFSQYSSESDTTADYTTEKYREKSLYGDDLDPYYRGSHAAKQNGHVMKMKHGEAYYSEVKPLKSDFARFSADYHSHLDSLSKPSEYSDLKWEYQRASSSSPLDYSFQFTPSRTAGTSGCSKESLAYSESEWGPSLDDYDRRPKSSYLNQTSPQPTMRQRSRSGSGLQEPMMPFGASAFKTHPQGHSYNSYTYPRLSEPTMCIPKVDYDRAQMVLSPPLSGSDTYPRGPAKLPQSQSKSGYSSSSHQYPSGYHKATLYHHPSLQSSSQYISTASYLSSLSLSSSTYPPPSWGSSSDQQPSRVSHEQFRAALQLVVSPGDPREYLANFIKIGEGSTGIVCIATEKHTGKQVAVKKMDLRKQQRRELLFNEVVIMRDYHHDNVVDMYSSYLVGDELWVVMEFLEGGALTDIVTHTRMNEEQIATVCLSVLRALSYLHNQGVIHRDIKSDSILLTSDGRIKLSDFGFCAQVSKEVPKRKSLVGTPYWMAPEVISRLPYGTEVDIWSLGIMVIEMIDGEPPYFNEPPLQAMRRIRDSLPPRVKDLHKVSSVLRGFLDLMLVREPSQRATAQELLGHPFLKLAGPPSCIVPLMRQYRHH
# Sequence of UniProt P10721 (whole entry, unmodified, looked up): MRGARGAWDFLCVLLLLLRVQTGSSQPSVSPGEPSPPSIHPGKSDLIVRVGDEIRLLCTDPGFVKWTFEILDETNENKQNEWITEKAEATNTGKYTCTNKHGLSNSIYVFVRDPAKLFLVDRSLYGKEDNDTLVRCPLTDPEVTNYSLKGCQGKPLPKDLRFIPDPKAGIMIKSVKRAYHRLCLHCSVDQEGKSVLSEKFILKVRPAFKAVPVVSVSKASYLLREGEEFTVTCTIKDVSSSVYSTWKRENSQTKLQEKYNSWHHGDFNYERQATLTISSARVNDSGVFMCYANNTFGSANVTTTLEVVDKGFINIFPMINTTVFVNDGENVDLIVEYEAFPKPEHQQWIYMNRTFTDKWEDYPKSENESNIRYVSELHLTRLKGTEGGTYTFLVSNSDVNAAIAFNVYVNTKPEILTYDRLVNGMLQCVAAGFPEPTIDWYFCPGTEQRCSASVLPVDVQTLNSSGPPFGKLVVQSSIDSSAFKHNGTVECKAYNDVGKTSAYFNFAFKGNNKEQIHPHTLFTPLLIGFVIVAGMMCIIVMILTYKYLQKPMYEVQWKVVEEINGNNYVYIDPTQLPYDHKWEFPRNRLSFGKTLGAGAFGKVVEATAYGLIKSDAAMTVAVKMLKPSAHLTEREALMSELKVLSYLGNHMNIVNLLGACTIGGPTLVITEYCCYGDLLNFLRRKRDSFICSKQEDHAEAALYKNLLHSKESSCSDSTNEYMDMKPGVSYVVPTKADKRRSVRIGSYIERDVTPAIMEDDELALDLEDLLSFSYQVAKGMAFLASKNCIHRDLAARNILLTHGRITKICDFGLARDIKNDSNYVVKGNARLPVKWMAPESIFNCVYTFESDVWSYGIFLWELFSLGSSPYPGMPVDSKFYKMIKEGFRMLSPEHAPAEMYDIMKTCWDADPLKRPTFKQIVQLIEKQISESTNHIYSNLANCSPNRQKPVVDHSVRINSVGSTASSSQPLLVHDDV
# Sequence of UniProt Q00535 (whole entry, looked up): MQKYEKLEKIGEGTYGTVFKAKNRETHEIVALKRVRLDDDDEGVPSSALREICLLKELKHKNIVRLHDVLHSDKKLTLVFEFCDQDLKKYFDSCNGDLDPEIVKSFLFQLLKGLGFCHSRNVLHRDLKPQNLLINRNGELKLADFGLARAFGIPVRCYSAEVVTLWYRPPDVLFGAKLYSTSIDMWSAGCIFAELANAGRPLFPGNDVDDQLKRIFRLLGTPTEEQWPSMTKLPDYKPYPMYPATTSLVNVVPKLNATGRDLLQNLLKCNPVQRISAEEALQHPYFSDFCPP
# Sequence of UniProt P49760 (whole entry, looked up): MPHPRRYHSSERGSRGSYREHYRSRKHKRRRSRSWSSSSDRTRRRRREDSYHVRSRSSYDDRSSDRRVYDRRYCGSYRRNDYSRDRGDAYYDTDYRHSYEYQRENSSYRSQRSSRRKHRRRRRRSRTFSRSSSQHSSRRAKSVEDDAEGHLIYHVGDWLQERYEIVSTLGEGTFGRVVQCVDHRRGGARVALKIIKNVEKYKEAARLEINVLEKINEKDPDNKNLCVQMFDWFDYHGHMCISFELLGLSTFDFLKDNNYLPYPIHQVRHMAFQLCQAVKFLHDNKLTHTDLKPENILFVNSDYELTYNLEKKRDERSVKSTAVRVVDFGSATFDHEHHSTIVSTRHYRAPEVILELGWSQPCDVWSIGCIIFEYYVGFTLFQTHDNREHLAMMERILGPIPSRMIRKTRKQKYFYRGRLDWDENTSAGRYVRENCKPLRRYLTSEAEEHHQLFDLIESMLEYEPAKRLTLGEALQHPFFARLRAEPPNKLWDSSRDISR
# Sequence of UniProt P11309 (whole entry, looked up): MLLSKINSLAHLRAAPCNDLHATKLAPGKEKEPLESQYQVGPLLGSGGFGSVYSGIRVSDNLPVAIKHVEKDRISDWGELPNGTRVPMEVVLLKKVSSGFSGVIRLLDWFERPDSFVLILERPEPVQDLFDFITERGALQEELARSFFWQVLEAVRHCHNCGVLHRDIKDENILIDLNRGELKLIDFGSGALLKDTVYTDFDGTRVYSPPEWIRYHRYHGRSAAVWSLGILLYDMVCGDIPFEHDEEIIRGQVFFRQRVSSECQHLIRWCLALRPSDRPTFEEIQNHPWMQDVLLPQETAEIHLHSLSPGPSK

# Study 1
# Cell line: HaCaT
# Concentration: 100 µM
# Time: 18 h
SMILES,viability [%]
COc1cc(Nc2c(C#N)cnc3cc(OCCCN4CCN(C)CC4)c(OC)cc23)c(Cl)cc1Cl,93.8
Cc1cn([C@H]2C[C@H](N=[N+]=[N-])[C@@H](CO)O2)c(=O)[nH]c1=O,96
COC(=O)Nc1nc2ccc(Sc3ccccc3)cc2[nH]1,89.7
CC(=O)c1ccc(O)c(C(=O)O)c1,119
CC[C@H](C)C[C@H](C)CCCCCCCCC(=O)N[C@H]1C[C@@H](O)[C@@H](NCCN)NC(=O)[C@@H]2[C@@H](O)CCN2C(=O)[C@H]([C@H](O)CCN)NC(=O)[C@H]([C@H](O)[C@@H](O)c2ccc(O)cc2)NC(=O)[C@@H]2C[C@@H](O)CN2C(=O)[C@H]([C@@H](C)O)NC1=O,52.5
CCOC(=O)c1ncn2c1CN(C)C(=O)c1cc(F)ccc1-2,112

# Study 2
# SMILES: CC(C)[C@H](CO)Nc1nc(Nc2cccc(Cl)c2)c2ncn(C(C)C)c2n1
# Observed: enzyme activity
# Mode: inhibitor
# Concentration: 0.5 µM
# Relative to: control
target,remaining activity
"Tyrosine-protein kinase JAK1 (JAK1, Homo sapiens, UniProt P23458)",108%
"Serine/threonine-protein kinase pim-1 (PIM1, Homo sapiens, UniProt P11309)",104%
"Dual specificity protein kinase CLK2 (CLK2, Homo sapiens, UniProt P49760)",21.9%
"Cyclin-dependent kinase 5, with p35 (CDK5, Homo sapiens, UniProt Q00535)",2.61%
"Calcium/calmodulin-dependent protein kinase type 1 (CAMK1, Homo sapiens, UniProt Q14012)",110%
"Vascular endothelial growth factor receptor 1 (FLT1, Homo sapiens, UniProt P17948)",102%
"Calcium/calmodulin-dependent protein kinase kinase 1 (CAMKK1, Homo sapiens, UniProt Q8N5S9)",101%
"Activin receptor type-1-like (ACVRL1, Homo sapiens, UniProt P37023)",96.7%
"Ephrin type-A receptor 2 (EPHA2, Homo sapiens, UniProt P29317)",89.5%
"Muscle, skeletal receptor tyrosine-protein kinase (MUSK, Homo sapiens, UniProt O15146)",56.8%
"Serine/threonine-protein kinase PAK 1 (PAK1, Homo sapiens, UniProt Q13153)",92.8%
"Serine/threonine-protein kinase SIK2 (SIK2, Homo sapiens, UniProt Q9H0K1)",92.2%
"Serine/threonine-protein kinase PAK 5 (PAK5, Homo sapiens, UniProt Q9P286)",76.8%
"Receptor tyrosine-protein kinase erbB-2 (ERBB2, Homo sapiens, UniProt P04626)",97.1%
"Casein kinase I isoform delta (CSNK1D, Homo sapiens, UniProt P48730)",92.2%
"Serine/threonine-protein kinase MARK1 (MARK1, Homo sapiens, UniProt Q9P0L2)",94.5%
"Serine/threonine-protein kinase PAK 6 (PAK6, Homo sapiens, UniProt Q9NQU5)",111%
"Dual specificity protein kinase CLK1 (CLK1, Homo sapiens, UniProt P49759)",67.5%
"Ribosomal protein S6 kinase beta-2 (RPS6KB2, Homo sapiens, UniProt Q9UBS0)",101%
"Protein kinase C zeta type (PRKCZ, Homo sapiens, UniProt Q05513)",102%
"Ephrin type-A receptor 6 (EPHA6, Homo sapiens, UniProt Q9UF33)",93.8%
"Mitogen-activated protein kinase kinase kinase 20 (MAP3K20, Homo sapiens, UniProt Q9NYL2)",108%

# Study 3
# Target: Sal-like protein 4, full length isoform B (SALL4, Homo sapiens, UniProt Q9UJQ4-2, residues 1-616)
# Technique: universal PBM
# Form: double-stranded DNA, one strand shown
# Matrix: in vitro
# Concentration: not given
# Notes: 8-mer, flanks averaged, mean of replicates
# Reading: higher = stronger binding
Sequence,E-score
CTTAGCAC,-0.0548
CCATGGCG,-0.0548
AGTCAAGA,-0.174
ATGCAGTG,-0.0653
GTTCTCGA,-0.0175
GTTCCTAA,-0.052
CTATCCCC,-0.172
AGCCGTTG,-0.0306

# Study 4
# SMILES: CCC(=O)N[C@H]1CC[C@@H](C(=O)N(C)c2ccc(-c3nc4ccccc4o3)cc2)C1
# Observed: cell-free assay
# Technique: competition with immobilised ligand
# Concentration: 1 µM
target,remaining binding
"Serine/threonine-protein kinase WNK2 (WNK2, Homo sapiens, UniProt Q9Y3S1)",74%
"Mast/stem cell growth factor receptor Kit (KIT, Homo sapiens, UniProt P10721, A829P)",57%
"Tyrosine-protein kinase Lck (LCK, Homo sapiens, UniProt P06239)",89%
"Platelet-derived growth factor receptor beta (PDGFRB, Homo sapiens, UniProt P09619)",89%
"Cyclin-dependent kinase 2 (CDK2, Homo sapiens, UniProt P24941)",100%
"MAP kinase-activated protein kinase 5 (MAPKAPK5, Homo sapiens, UniProt Q8IW41)",73%
"Mitogen-activated protein kinase 8 (MAPK8, Homo sapiens, UniProt P45983)",58%
"Epidermal growth factor receptor (EGFR, Homo sapiens, UniProt P00533, L858R)",97%

# Other studies, line by line
Structure (SMILES),target or system,assay,system,conditions,how to read,quantity,result
CCOC(=O)[C@@H]1CSCC(=O)N[C@@H](CC)C(=O)N(C)[C@@H](C)C(=O)N[C@H](CC(C)C)C(=O)N2CCC[C@@H]2C(=O)N(CC(C)C)CC(=O)N[C@H](CC(C)C)C(=O)N(C)[C@H](C)C(=O)N[C@@H](CC(C)C)C(=O)N1C,,,hydrocarbon/water,,,logD,1.61
c1ccc2c(-c3nn4c(-c5ccncc5)nnc4s3)c[nH]c2c1,HEK293T ATF4-firefly luciferase reporter,"integrated stress response, refers to: ATF4",,"1 µM, without ISRIB",relative to: DMSO,reporter signal,112% and 157% and 133% and 131% and 122%
CC(C)n1cnc(-c2ccc(F)cc2)c1-c1ncc(C(=O)Nc2ccc(N3CCN(C)CC3)cc2)[nH]1,,,"human, idiopathic pulmonary fibrosis","60 mg once daily, trial, treatment-emergent",,patients with Tri-iodothyronine increased,0%
COc1ccc(-c2c(Nc3ccccn3)[nH]c3c(C4=CCCCC4)c(-c4ccccc4)nn3c2=O)cc1,,immunohistochemistry,"human, tumour biopsy","oral, 400 mg once daily, cycle 1 day 28",direction not given,SDMA H-score,270 and 170 and 100

# Some of these lines once more (study 2):
target,remaining activity
"Serine/threonine-protein kinase pim-1 (PIM1, Homo sapiens, UniProt P11309)",104%
"Dual specificity protein kinase CLK2 (CLK2, Homo sapiens, UniProt P49760)",21.9%
"Cyclin-dependent kinase 5, with p35 (CDK5, Homo sapiens, UniProt Q00535)",2.61%
